Published values gathered from unrelated publications.
Compare with care: the assays were run in different laboratories.
TMPRSS2: Transmembrane protease serine 2 (TMPRSS2, Homo sapiens, UniProt O15393)
UniProt O15393, sequence (whole entry, looked up): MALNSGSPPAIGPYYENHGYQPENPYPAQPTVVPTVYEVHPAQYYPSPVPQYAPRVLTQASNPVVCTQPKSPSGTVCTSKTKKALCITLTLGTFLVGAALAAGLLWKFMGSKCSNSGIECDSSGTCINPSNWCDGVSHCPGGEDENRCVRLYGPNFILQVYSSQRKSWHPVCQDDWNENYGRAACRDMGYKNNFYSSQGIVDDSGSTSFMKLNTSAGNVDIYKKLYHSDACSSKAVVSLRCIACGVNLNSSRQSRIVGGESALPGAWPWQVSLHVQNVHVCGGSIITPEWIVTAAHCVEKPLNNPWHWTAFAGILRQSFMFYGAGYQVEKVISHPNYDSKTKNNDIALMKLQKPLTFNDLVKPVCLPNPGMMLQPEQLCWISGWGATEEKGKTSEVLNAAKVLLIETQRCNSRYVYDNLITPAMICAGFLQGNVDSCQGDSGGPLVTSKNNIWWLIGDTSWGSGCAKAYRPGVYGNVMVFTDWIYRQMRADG
CNR1: Cannabinoid receptor 1 (CNR1, Homo sapiens, UniProt P21554)
UniProt P21554, sequence (whole entry, looked up): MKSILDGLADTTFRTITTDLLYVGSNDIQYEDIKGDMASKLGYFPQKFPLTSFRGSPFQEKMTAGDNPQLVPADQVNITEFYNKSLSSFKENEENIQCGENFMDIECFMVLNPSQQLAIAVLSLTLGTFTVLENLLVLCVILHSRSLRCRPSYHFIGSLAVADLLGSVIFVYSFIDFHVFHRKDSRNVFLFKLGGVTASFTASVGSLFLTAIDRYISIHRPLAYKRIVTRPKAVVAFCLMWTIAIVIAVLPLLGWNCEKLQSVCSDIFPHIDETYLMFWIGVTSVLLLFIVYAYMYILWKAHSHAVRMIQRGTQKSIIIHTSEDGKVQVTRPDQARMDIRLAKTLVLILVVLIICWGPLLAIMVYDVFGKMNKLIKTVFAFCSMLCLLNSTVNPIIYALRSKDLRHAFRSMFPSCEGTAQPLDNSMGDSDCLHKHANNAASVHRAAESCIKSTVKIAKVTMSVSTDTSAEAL
UniProt Q8NI60, sequence (whole entry, looked up): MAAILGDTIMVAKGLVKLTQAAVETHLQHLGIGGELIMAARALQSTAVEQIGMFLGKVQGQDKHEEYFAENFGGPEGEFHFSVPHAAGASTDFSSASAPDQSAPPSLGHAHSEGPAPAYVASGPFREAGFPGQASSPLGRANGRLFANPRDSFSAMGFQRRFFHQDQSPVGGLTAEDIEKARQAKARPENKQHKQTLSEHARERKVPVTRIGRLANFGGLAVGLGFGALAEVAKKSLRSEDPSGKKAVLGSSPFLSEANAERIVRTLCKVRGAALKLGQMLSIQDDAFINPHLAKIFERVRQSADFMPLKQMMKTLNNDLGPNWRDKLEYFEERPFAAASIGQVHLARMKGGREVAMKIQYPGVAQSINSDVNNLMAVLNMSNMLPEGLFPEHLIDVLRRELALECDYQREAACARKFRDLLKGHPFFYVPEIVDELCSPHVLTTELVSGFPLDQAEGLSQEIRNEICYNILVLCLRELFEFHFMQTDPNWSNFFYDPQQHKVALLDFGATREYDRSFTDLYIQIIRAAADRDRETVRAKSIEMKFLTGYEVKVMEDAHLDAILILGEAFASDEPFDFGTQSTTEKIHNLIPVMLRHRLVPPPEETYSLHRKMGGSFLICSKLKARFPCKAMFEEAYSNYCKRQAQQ
UniProt P08173, sequence (whole entry, looked up): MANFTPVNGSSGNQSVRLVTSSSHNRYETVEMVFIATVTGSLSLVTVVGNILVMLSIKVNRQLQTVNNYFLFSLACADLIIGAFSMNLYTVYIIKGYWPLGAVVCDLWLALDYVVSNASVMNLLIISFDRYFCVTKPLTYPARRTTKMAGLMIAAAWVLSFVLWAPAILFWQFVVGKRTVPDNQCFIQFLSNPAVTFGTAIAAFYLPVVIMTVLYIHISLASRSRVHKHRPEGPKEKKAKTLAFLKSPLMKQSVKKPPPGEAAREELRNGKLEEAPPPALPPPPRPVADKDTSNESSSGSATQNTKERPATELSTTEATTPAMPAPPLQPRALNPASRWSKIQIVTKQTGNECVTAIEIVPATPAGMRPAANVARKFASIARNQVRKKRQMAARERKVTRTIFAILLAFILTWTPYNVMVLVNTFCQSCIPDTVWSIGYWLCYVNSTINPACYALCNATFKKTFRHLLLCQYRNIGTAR
UniProt Q8TD19, sequence (whole entry, looked up): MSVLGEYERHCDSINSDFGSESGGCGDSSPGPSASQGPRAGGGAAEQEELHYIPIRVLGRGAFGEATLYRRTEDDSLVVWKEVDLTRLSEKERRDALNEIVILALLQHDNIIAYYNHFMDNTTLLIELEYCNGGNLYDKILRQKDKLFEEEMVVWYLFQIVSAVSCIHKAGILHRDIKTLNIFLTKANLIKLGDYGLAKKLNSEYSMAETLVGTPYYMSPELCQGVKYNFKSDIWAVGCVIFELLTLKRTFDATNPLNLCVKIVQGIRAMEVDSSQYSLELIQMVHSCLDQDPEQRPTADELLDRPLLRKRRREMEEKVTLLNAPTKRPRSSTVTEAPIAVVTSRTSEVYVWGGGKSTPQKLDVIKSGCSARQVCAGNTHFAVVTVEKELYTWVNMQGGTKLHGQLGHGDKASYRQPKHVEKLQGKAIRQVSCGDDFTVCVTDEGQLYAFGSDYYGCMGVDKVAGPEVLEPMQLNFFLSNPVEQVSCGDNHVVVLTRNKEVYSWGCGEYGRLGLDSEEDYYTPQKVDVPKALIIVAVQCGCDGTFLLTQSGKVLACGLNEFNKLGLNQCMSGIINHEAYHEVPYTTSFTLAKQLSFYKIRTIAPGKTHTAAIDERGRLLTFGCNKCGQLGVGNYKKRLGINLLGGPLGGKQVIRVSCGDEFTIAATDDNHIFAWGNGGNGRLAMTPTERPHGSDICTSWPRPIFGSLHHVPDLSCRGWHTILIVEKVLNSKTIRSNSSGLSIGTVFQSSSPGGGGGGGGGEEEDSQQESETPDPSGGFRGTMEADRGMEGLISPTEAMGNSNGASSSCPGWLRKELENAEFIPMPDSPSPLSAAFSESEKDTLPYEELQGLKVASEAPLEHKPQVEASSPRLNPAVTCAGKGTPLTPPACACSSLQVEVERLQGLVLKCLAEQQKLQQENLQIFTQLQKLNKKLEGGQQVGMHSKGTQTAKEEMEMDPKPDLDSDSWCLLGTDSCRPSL
UniProt Q96D53, sequence (whole entry, looked up): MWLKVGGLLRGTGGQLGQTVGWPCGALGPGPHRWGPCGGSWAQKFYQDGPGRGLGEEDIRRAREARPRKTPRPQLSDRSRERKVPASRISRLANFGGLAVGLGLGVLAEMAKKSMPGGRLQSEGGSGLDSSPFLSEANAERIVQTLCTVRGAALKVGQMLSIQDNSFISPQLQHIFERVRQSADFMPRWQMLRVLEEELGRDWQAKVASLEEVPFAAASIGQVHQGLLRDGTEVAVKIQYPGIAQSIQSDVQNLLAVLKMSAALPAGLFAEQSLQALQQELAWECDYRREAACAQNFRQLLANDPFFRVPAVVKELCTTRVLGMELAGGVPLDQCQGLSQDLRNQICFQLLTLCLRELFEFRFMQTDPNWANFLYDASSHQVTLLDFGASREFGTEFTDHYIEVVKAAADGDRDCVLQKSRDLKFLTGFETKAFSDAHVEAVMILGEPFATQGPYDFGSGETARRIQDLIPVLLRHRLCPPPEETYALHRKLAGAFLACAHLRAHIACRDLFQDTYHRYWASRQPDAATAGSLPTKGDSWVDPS
UniProt Q92830, sequence (whole entry, unmodified, looked up): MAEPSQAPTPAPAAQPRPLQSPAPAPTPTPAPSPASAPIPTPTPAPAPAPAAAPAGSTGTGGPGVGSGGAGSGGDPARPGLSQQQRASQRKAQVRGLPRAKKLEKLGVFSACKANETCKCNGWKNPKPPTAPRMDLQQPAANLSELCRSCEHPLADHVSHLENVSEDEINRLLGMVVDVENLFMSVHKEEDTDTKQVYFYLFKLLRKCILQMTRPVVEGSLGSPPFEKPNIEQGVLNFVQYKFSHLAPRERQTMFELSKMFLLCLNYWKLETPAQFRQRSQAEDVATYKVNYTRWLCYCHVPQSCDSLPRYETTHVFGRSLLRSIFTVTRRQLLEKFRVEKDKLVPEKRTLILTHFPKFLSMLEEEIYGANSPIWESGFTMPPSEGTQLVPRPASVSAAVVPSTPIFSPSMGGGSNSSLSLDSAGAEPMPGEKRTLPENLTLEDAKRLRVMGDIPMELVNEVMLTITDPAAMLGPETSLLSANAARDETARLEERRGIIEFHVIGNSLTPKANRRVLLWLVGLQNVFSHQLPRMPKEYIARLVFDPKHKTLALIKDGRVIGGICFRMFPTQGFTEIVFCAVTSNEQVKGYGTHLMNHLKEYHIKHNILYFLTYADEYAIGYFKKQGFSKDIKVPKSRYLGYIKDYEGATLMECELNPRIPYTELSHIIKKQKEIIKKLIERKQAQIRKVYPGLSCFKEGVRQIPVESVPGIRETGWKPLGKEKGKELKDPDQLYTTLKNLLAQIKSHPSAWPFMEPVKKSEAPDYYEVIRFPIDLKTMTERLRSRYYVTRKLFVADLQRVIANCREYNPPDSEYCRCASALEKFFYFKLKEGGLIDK
UniProt P28223, sequence (whole entry, looked up): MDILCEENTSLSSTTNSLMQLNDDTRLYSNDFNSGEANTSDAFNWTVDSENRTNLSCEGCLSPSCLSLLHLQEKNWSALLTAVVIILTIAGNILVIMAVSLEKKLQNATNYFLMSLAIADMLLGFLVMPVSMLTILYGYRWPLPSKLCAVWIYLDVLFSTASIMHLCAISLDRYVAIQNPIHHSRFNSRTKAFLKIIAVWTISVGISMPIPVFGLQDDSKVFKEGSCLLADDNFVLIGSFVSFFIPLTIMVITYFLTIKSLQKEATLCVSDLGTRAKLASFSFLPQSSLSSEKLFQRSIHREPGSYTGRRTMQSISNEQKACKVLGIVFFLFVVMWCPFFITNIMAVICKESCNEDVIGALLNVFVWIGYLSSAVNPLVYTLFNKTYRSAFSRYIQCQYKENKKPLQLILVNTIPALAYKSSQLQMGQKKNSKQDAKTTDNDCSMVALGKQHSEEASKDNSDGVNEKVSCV

Compound | tested on | assay | system | setting | endpoint | value
c1cncc([C@@H]2CCCN2)c1 | ADRB1 (Homo sapiens, UniProt P08588) | ligand displacement | – | 50 µM | inhibition | 14%
Cc1ccc(S(=O)(=O)Oc2ccc3c(c2)Oc2nc4c(c(N)c2C3c2ccc(Cl)c(Cl)c2)CCCC4)cc1 (stereo not drawn) | SH-SY5Y | cell growth or viability, MTT | – | 0.4 µM | viability | 89.5%
OC[C@H]1CNCCN1C[C@@H]1CCCN1C[C@H](CC1CCCCC1)N1CCN(CCc2ccc(Cl)c(Cl)c2)[C@H](Cc2ccc(O)cc2)C1 | OPRK1 (Cavia porcellus, UniProt P41144) | ligand displacement, radioligand | – | 0.5 µM, pH 7.5 | remaining binding | 110%
CCN(CC)CCCC[C@H](NC(=O)[C@H](CC(C)C)NC(=O)[C@H](C)NC(=O)[C@H](Cc1ccccc1)NC(=O)c1ccc(C(C)(C)C)cc1)C(=O)N[C@@H](CO)C(=O)OC | KAT2A (Homo sapiens, UniProt Q92830) | thermal stability, DSF | – | 25 µM | ΔTm | 0 °C
N=C(N)NCCC[C@@H](NC(=O)[C@H](Cc1ccccc1)NC(=O)[C@H](CCC(N)=O)NC(=O)CCO)C(=O)c1nc2ccccc2s1 | TMPRSS2 | enzyme activity, inhibitor | – | 1 nM | activity vs control | 30%
COc1cnc(OC)n2nc(NS(=O)(=O)c3c(OCC(F)F)cccc3C(F)(F)F)nc12 | L02 | cell growth or viability, CCK-8 | – | 3.13 µM, 72 h | inhibition | 0%
CC[C@H](C)[C@H](NC(=O)[C@H](Cc1ccccc1)NC(=O)[C@H](CCC(=O)O)NC(=O)[C@H](CCCNC(=N)N)NC(=O)[C@H](C)NC(=O)[C@H](C)NC(=O)[C@H](CCC(N)=O)NC(=O)[C@H](CCC(=O)O)NC(=O)[C@H](CCC(=O)O)NC(=O)[C@H](CC(C)C)NC(=O)[C@H](Cc1ccc(O)cc1)NC(=O)[C@H](CO)NC(=O)[C@H](CO)NC(=O)[C@@H](NC(=O)[C@H](CC(=O)O)NC(=O)[C@H](CO)NC(=O)[C@@H](NC(=O)[C@H](Cc1ccccc1)NC(=O)[C@@H](NC(=O)CNC(=O)[C@H](CCC(=O)O)NC(=O)[C@H](C)NC(=O)CCc1c[nH]cn1)[C@@H](C)O)[C@@H](C)O)C(C)C)C(=O)N[C@@H](C)C(=O)N[C@@H](Cc1c[nH]c2ccccc12)C(=O)N[C@@H](CC(C)C)C(=O)N[C@H](C(=O)N[C@@H](CCCNC(=N)N)C(=O)NCC(=O)N[C@@H](CCCNC(=N)N)C(=O)N[C@@H](CCCCNC(=O)COCCOCCNC(=O)COCCOCCNC(=O)CC[C@H](NC(=O)CCCCCCCCCCCCCCCCC(=O)O)C(=O)O)C(=O)NCC(=O)NCC(=O)N[C@@H](CO)C(=O)N[C@@H](CCCCNc1c(NCCCCCN(O)C(=O)CCC(=O)NCCCCCN(O)C(=O)CCC(=O)NCCCCCN(O)C(C)=O)c(=O)c1=O)C(=O)O)C(C)C | – | – | rat, plasma | subcutaneous, 20 nmol/kg | half-life | 8.2 h
N=C(N)NCCC[C@H](N)C(=O)N[C@@H](CCC(N)=O)C(=O)N[C@@H](Cc1ccc([N+](=O)[O-])cc1)C(=O)N[C@H](CCCNC(=N)N)C(=O)c1nc2ccccc2s1 | TMPRSS2 | enzyme activity, inhibitor | – | 1 nM | activity vs control | 42%
Nc1ncc(-c2nc(N3CCOCC3)nc(N3CCOCC3)n2)c(C(F)F)n1 | COQ8B (Homo sapiens, UniProt Q96D53) | binding, competition with immobilised ligand | – | 10 µM | remaining binding | 92%
CC(C)[C@H](NC(=O)[C@H](CCc1ccccc1)NC(=O)CCc1ccc2ccccc2c1)C(=O)N[C@@H](CCCNC(=N)N)C(=O)c1nc2ccccc2s1 | TMPRSS2 | enzyme activity, inhibitor | – | 1 nM | activity vs control | 84%
O=C(N=Nc1c(O)n(CC2CCCCC2)c2ccccc12)c1ccccc1 | CNR1 | β-arrestin recruitment, agonist | HEK293 | – | Emax | 127%
O=C/C=C/c1ccccc1 | Procathepsin L (CTSL, Homo sapiens, UniProt P07711) | enzyme activity, inhibitor | – | 100 µM | remaining activity | 39.7%
COc1cc(CCNC(C)c2ccccc2O)c(OC)cc1C#N (stereo not drawn) | HTR2A (Homo sapiens, UniProt P28223) | β-arrestin recruitment, agonist | – | – | Emax | 108%
CC(C)CC(=O)OC[C@H]1O[C@@](C#N)(c2ccc3c(N)ncnn23)[C@H](O)[C@@H]1O | CHRM4 (Homo sapiens, UniProt P08173) | cell-free assay | – | 20 µM | inhibition | 3%
N.N.[Cl][Pt][Cl] | U2932 | cell growth or viability, ATP luminescence | – | 10 µM, 72 h | inhibition | 97%
C[C@]12CC[C@H]3[C@@H](CC=C4CC(O)CC[C@@]43CO)[C@@H]1CCC2O (stereo partly drawn) | – | – | rat, plasma | intraperitoneal, 10 mg/kg | half-life | 0.3 h
CC(C)C[C@H](NC(=O)[C@H](Cc1ccccc1)NC(=O)[C@H](Cc1ccccc1)NC(=O)Cc1ccc(-c2ccccc2)cc1)C(=O)N[C@@H](CCCCN)C(=O)N[C@@H](CCCNC(=N)N)C(=O)N[C@H](C(=O)N[C@@H](Cc1c[nH]c2ccccc12)C(=O)N[C@@H](CCCCN)C(=O)N[C@@H](CCCNC(=N)N)C(=O)O)C(C)C | – | metabolic stability, mass spectrometry | mouse, liver microsomes | 30 min | compound remaining | 20.1%
C#Cc1n[nH]c2c(-c3cn([C@@H](C)c4ccccn4)c(=O)[nH]c3=O)cc(F)cc12 | PRKDC (Homo sapiens, UniProt P78527) | enzyme activity, inhibitor | – | 0.1 µM | inhibition | -3.2%
C[C@@H](NC(=O)[C@H](CCC(N)=O)NC(=O)[C@@H](N)CCCNC(=N)N)C(=O)N[C@@H](CCCNC(=N)N)C(=O)c1nc2ccccc2s1 | TMPRSS2 | enzyme activity, inhibitor | – | 1 nM | activity vs control | 99%
CCOC(=O)c1c(NC(=O)CNC(C)C)sc2c1CCCCC2 | – | – | male mouse, brain | intraperitoneal, 100 mg/kg, 1 h | concentration | 8020 ng/g
COC(=O)c1cc(-c2cccc(NC(=O)Nc3ccc(Cl)cc3)c2)on1 | Pseudomonas aeruginosa | microbial growth, broth dilution | ATCC27853 | – | MIC | > 64 µg/mL
N=C(N)NCCC[C@H](NC(=O)[C@@H](N)Cc1c[nH]c2ccccc12)C(=O)N[C@@H](CCC(=O)O)C(=O)N[C@@H](CCCNC(=N)N)C(=O)c1nc2ccccc2s1 | TMPRSS2 | enzyme activity, inhibitor | – | 1 nM | activity vs control | 100%
Cc1nn(C)cc1-c1nc2c(N3CCN(Cc4ccc(Cl)cc4)CC3)c(Cl)cnc2[nH]1 | STK38L (Homo sapiens, UniProt Q9Y2H1) | binding, competition with immobilised ligand | – | 1 µM | remaining binding | 90%
[2H]c1c([2H])c([C@]2([2H])CCCN2C(=O)C(C)(C)Oc2ccc3cn[nH]c3c2)c([2H])c([2H])c1C([2H])([2H])[2H] | NEK9 (Homo sapiens, UniProt Q8TD19) | binding, competition with immobilised ligand | – | 1 µM | remaining binding | 78%
CCCCC/C=C\C/C=C\C/C=C\Cc1ccccc1CCCC(=O)OC(CO)CO | CNR1 | β-arrestin recruitment, agonist | – | – | Emax | 4%
CC(C)CC(=O)N[C@@H](CCC(N)=O)C(=O)N[C@@H](Cc1ccccc1)C(=O)N[C@@H](CCCNC(=N)N)C(=O)c1nc2ccccc2s1 | TMPRSS2 | enzyme activity, inhibitor | – | 1 nM | activity vs control | 14%
COc1ncccc1-c1cnn2ccc(N3CCN(C(=O)OC(C)C)CC3)nc12 | COQ8A (Homo sapiens, UniProt Q8NI60) | binding, competition with immobilised ligand | – | 1 µM | remaining binding | 81%

For quick reference, copied from above:
Compound | tested on | assay | system | setting | endpoint | value
CC[C@H](C)[C@H](NC(=O)[C@H](Cc1ccccc1)NC(=O)[C@H](CCC(=O)O)NC(=O)[C@H](CCCNC(=N)N)NC(=O)[C@H](C)NC(=O)[C@H](C)NC(=O)[C@H](CCC(N)=O)NC(=O)[C@H](CCC(=O)O)NC(=O)[C@H](CCC(=O)O)NC(=O)[C@H](CC(C)C)NC(=O)[C@H](Cc1ccc(O)cc1)NC(=O)[C@H](CO)NC(=O)[C@H](CO)NC(=O)[C@@H](NC(=O)[C@H](CC(=O)O)NC(=O)[C@H](CO)NC(=O)[C@@H](NC(=O)[C@H](Cc1ccccc1)NC(=O)[C@@H](NC(=O)CNC(=O)[C@H](CCC(=O)O)NC(=O)[C@H](C)NC(=O)CCc1c[nH]cn1)[C@@H](C)O)[C@@H](C)O)C(C)C)C(=O)N[C@@H](C)C(=O)N[C@@H](Cc1c[nH]c2ccccc12)C(=O)N[C@@H](CC(C)C)C(=O)N[C@H](C(=O)N[C@@H](CCCNC(=N)N)C(=O)NCC(=O)N[C@@H](CCCNC(=N)N)C(=O)N[C@@H](CCCCNC(=O)COCCOCCNC(=O)COCCOCCNC(=O)CC[C@H](NC(=O)CCCCCCCCCCCCCCCCC(=O)O)C(=O)O)C(=O)NCC(=O)NCC(=O)N[C@@H](CO)C(=O)N[C@@H](CCCCNc1c(NCCCCCN(O)C(=O)CCC(=O)NCCCCCN(O)C(=O)CCC(=O)NCCCCCN(O)C(C)=O)c(=O)c1=O)C(=O)O)C(C)C | – | – | rat, plasma | subcutaneous, 20 nmol/kg | half-life | 8.2 h
C#Cc1n[nH]c2c(-c3cn([C@@H](C)c4ccccn4)c(=O)[nH]c3=O)cc(F)cc12 | PRKDC (Homo sapiens, UniProt P78527) | enzyme activity, inhibitor | – | 0.1 µM | inhibition | -3.2%
[2H]c1c([2H])c([C@]2([2H])CCCN2C(=O)C(C)(C)Oc2ccc3cn[nH]c3c2)c([2H])c([2H])c1C([2H])([2H])[2H] | NEK9 (Homo sapiens, UniProt Q8TD19) | binding, competition with immobilised ligand | – | 1 µM | remaining binding | 78%
